# Measurements of several laboratories.
# A part holds a random share of what one study measured.

# Sample 1 — method: protein-binding microarray; form: double-stranded DNA, one strand shown; sample: in vitro; concentration: 250 nM; setting: 60-bp whole probe; together with: salmon DNA 0.4 mg/ml; relative to: random background probes; reading: higher = stronger binding; constant ends, left off below: GCCTAGCAC … GTCTTGATTCGCTTGACGCTGCTG
# Target: Interferon regulatory factor 7, full length, phosphomimetic (IRF7, Homo sapiens, UniProt Q92985, residues 1-503, S101K/S471D/S472D/S475D/S476D/S477D/S483D/S484D/S487D)
# Chain of UniProt Q92985 (whole entry, unmodified, looked up): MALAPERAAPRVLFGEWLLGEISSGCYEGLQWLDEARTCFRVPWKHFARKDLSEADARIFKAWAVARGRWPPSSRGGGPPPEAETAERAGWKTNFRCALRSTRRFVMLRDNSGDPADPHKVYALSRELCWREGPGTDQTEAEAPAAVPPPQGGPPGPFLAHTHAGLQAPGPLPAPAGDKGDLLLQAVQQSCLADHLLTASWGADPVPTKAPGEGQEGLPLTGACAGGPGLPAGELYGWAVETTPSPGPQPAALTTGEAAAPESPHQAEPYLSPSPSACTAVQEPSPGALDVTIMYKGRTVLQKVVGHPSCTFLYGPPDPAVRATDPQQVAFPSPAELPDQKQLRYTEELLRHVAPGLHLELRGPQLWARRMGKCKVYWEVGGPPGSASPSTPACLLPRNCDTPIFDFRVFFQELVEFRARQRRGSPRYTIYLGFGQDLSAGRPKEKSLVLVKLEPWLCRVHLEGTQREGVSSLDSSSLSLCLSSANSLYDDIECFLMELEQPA
Strand,log fluorescence [z-score]
TTACCTTTTCACTTTACACAGTGCTAG,2.8
GACGGTTTCGGTTCCGGGCCGTGCTAG,11.9
GACGGTTTCGGTTCCGTGACGTGCTAG,12.5
TCACTTTTTTTAATTGAACTGTGCTAG,0.484
GACGGACTGGGACTAGGGACGTGCTAG,-0.264
GACGGACTGGGGACTAGGGACGTGCTA,-0.0626
GACGGTCTCCTTATCCTTACGTGCTAG,-0.0776
CTAATTTTTACTTTCTGAATGTGCTAG,1.62
TTAGGTTCCTTTTTCCTTTAGTGCTAG,4.63
GACGGACTGCTTATTCTGACGTGCTAG,-0.464
GACGCTATCGACTTTCGGGACGTGCTA,0.159
GAAGGTATCGGGTATCGGGACGTGCTA,0.381
TCAAGTCTAGCCATTGTGACTGTGCTA,-0.543
GACGATTGCGGGACTGGAGACGTGCTA,-0.743
TTTGGACTGGACACTGGGTTAGTGCTA,-0.544
GACGAACTGGGCACTGGAGACGTGCTA,-0.649
TCATCTTCATGTTTTTTACTGTGCTAG,0.565
GACGGTCTCCTTCTCCTCACGTGCTAG,0.146
GACTGTTTCCTTTCCCTGACGTGCTAG,2.84
GACGGACTGGGGTCTCGGGACGTGCTA,-0.555
GACGGTGTCGACACTGGGGACGTGCTA,-0.756
TTTGGACTGGGTCTCGGTTAGTGCTAG,0.617
GACGGACTGGGGCCTGGGGACGTGCTA,-0.682
TTAGGAGTGGACACTGGGTTAGTGCTA,-0.69
GACGAACTGAGTCTCGATACGTGCTAG,0.647

# Sample 2 — organism: Saccharomyces cerevisiae; observed: binding; method: yeast competitive growth sequencing; form: peptide; setting: cyclin B2-Cln2 chimera; reading: direction not given
Molecule,enrichment score
AIRKMREDRWAVIAKM,-1.65
NARRSLNFGGSTGT,-0.315
SGYLTDENEVGFRG,1.09
VRDLSYRLVFLACCVA,-0.216
NRLLKLFTRCLTPLVP,-1.96
TLPYDLACTGGDFVLF,0.949
DSGFCLDSPGPLDSKE,0.124
IPMIAKNLMCELDE,0.0767
IFNKPECGRVQRAIFQ,-0.5
VEEEFFALRKRTPSAG,0.897
TQERKQIHCLSEDELS,-0.588
ELGMEHCEKFEISETS,0.105
RRRIKLPESDSSED,2.04
NLEPNAEFDKRTEFIT,0.516
RNRGPKLNAMLRLGVL,-1.22
ALTMEALEDPSPELME,1.71
DSDSDSEGGAAGGEAD,2.11
EAAPPTQEAQGETEPT,-0.253

# Sample 3 — method: universal PBM; form: double-stranded DNA, one strand shown; sample: in vitro; concentration: 600 nM; reading: higher = stronger binding
# Target: Sal-like protein 4, full length isoform A (SALL4, Homo sapiens, UniProt Q9UJQ4, residues 1-1053)
# Chain of UniProt Q9UJQ4 (whole entry, looked up): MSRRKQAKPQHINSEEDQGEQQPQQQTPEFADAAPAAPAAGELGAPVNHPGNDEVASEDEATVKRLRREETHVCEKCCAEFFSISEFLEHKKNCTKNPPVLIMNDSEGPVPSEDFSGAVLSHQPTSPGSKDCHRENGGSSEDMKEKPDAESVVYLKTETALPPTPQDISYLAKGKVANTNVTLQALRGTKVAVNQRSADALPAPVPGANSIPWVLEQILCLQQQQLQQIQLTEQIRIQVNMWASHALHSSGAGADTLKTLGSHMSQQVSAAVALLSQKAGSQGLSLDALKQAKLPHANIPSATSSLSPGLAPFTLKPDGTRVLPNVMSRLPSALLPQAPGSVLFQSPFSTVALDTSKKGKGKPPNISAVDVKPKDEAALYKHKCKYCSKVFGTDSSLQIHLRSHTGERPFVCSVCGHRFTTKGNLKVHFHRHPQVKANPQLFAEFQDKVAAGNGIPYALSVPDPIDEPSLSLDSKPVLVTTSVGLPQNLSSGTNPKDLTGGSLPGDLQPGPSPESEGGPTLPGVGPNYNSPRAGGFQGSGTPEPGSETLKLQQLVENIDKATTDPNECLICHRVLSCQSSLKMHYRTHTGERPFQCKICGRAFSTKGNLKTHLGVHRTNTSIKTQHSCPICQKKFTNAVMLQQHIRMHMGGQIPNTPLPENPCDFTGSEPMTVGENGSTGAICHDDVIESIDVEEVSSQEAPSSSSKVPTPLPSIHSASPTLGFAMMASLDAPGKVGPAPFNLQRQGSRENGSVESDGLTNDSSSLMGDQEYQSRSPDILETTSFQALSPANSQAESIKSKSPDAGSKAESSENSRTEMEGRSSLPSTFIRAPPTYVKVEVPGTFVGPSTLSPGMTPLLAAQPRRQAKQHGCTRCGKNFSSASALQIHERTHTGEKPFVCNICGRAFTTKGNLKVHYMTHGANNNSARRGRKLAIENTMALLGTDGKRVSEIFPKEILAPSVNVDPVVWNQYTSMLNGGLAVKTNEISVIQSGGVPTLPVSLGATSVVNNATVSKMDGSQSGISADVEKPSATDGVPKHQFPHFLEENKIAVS
# Setting: 8-mer, flanks averaged, mean of replicates
Strand,E-score
CGGAAATC,-0.124
AACCAGTA,0.0529
GATCACCA,-0.0522
GCCACCCA,-0.341
ACTGATCG,-0.137
GATAGTCC,-0.0322
CTTGCTGC,-0.127
ACGCAAAT,0.00385
TTACCCAA,0.044
GAATTGTA,0.112
GCTTAACA,0.132
AAAAATTG,0.383
ATCCGAGG,-0.243
CGTCAATA,0.176
ATACCGAA,0.223
GTGATAGA,0.147
GTCTAAGA,-0.0647
CTGGGGCC,-0.414
GCGTGATA,0.0411
AGTGCTTA,0.0932
ACATACCG,0.0372
TTCCCCAA,-0.00857
AGTATGTA,0.24
TCCGGACA,-0.184
GCAGCCAA,-0.00188

# Sample 4 — method: aptamer microarray, sandwich; form: DNA with 2'F-ANA; sample: in vitro; concentration: 200 nM; together with: Cy3 exosite-II aptamer, 400 nM; reading: higher = stronger binding; strand: GGTTGGTGTGGTTGG
# Target: Prothrombin, mature alpha-thrombin (F2, Homo sapiens, UniProt P00734)
# Setting: whole 15-mer aptamer, many near background
Modification,mean fluorescence intensity [a.u.]
2'F-ANA at 2 3 8 10 11,391
2'F-ANA at 2 4 5 10 14,42.5
2'F-ANA at 1 4 6 9 11 15,85.7
2'F-ANA at 3 4 5 7 8 11 12,204
2'F-ANA at 1 3 4 5 6 7 9 11 12 13,64.8
2'F-ANA at 2 6 7,415
2'F-ANA at 3 5 7 8 11 12 13 15,186
2'F-ANA at 1 3 4 7 8 10 11 12 13 14 15,53.8
2'F-ANA at 2 3 4 5 6 7 8 10 11 12 15,93.2
2'F-ANA at 2 3 5 6 8 9 12 15,201
2'F-ANA at 1 3 4 6 13,125
2'F-ANA at 2 4 11 12 15,448
2'F-ANA at 1 3 7 10 13,73.2
2'F-ANA at 1 4 8 9 10 12 13 15,53.6
2'F-ANA at 1 3 6 7 8 9 10 11 12 14,94
2'F-ANA at 2 4 5 6 8 9 11,89.1
2'F-ANA at 3 5 6 7 9 10 13 14,49.8
2'F-ANA at 1 4 7 8 9 10 11 12 14 15,48.9
2'F-ANA at 1 3 5 11 12 13 15,83.4
2'F-ANA at 4 5 11 13 15,57.4
2'F-ANA at 3 7 10 11 12 13 15,590
2'F-ANA at 1 2 3 4 6 7 9 10 11 12 13 14 15,53.4
2'F-ANA at 1 2 4 5 6 8 9 10 11 12 13 15,48
2'F-ANA at 2 5 7 8 9 10 11 12,49
2'F-ANA at 1 3 4 9 10 11 14,51.6

# Sample 5 — method: protein binding microarray; form: double-stranded DNA, one strand shown; sample: in vitro; concentration: not given; relative to: not given; reading: higher = stronger binding
# Target: Histone acetyltransferase KAT6A, winged helix 2, GST fusion (KAT6A, Homo sapiens, UniProt Q92794, residues 85-181)
# Setting: 8-mer, flanks averaged, mean of 2 arrays, mostly near background
# Target sequence (chain): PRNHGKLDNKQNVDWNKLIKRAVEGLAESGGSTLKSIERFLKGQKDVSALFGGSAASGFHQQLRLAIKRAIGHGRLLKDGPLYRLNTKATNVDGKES
Strand,E-score
GAGCCGCA,0.0812
AGGGTGGC,-0.00843
CCTCCGCC,0.179
TACAGTAA,-0.172
TAACAGAA,-0.108
ACGGTCCC,-0.0246
ATAATGGA,-0.0924
AGCTATAA,-0.176
AAAATAGT,-0.129
ACGAGACA,0.0493
CCGTGACG,-0.0802
AATACGTG,-0.182
ATTTGACG,0.0738
AGTGGTCC,-0.0334
AGTCTGTC,-0.144
ACCGCCAA,0.0614
AGACATCG,0.0282
GGTGGGTA,-0.121
CTCAGCGA,-0.151
CGATAGAG,0.141
CCTATTGC,-0.109
AAGAGATT,-0.11
GGTATTAA,0.17
AGCCGCAA,0.0545
ATTACCAC,0.0347
